Results gathered from unrelated publications.
Compare with care: the assays were run in different laboratories. “And” joins repeats or separate records; there may be more than shown.
B1: chain MTPELNWRHEFGEIRVTFSIFNRFWLNWMDRSDRIIMIAQMHYTVAVVGSEAGRSLFAPPAY

Polymyxin B — MIC fold change (Escherichia coli; ATCC 25922; concentration not given, together with: MgCl2 1 mM; baseline: no added salt): 2 fold
Polymyxin B — inhibition zone diameter (Escherichia coli; ATCC 25922; 62.5 µg per disc, 24 h, 37 °C): 18 mm
KPGKGSETVV — binding intensity (human MAGI1-2/6 PDZ construct (MBP fusion); automated holdup; peptide, purified PDZ protein; concentration not given, unit not given; baseline: biotin control resin, higher = stronger binding): 0.482
MTPELNWRHEFGEIR — log fold change (Escherichia coli; bacterial growth; peptide, DH5α; concentration not given; baseline: with over without arabinose induction): 4.24
GSGAGKESYV — binding intensity (human MAGI1-2/6 PDZ construct (MBP fusion); automated holdup; peptide, purified PDZ protein; concentration not given, unit not given; baseline: biotin control resin, higher = stronger binding): 0.0404
Triton X-100 — FIC index (Escherichia coli; tetracycline-resistant; 20 µM, together with: tetracycline): 1
MTPELNWRHEFGEIRVTFSI — fold change (Escherichia coli; bacterial growth; peptide, DH5α; concentration not given, 37 °C; baseline: with over without arabinose induction): 24.9
Polymyxin B — inhibition zone diameter (Escherichia coli; CGMCC 1.9; concentration not given, 18 h, 37 °C): 14 mm
colistin — MIC (Escherichia coli; broth microdilution; clinical isolate RKI-No_593/16): ≤ 0.5 µg/mL
colistin — MIC (Escherichia coli; MG1655): 0.25 µg/mL
colistin — fold MIC shift (Escherichia coli; ATCC 25922; baseline: 5% CO2 over ambient air): 2
GLGTWISQV — reporter activation (Jurkat T cells expressing 1G4 TCR; NFAT-eGFP reporter, flow cytometry; peptide; concentration not given, HLA-A*02:01 NY-ESO system): 12.2%
colistin — bacterial load (Escherichia coli; ATCC 25922, female ICR mice, subcutaneous infection, infected skin; dose not given): 8.44 log CFU/g and 7.86 log CFU/g and 7.79 log CFU/g and 8.57 log CFU/g and 7.81 log CFU/g
gentamicin — inhibition zone diameter (Escherichia coli; concentration not given, 24 h, 37 °C): 12 mm
polymyxin B — time to eradication (Escherichia coli; ATCC BAA-2452; 4 × MIC): 3 h
B1 — fold change (Escherichia coli; bacterial growth; DH5α; concentration not given, 37 °C; baseline: with over without arabinose induction): 13.7
gentamicin — viable count (Escherichia coli; time-kill; 1 x MIC, 30 min): 2.47 log CFU/mL
colistin — tetracycline MIC (Escherichia coli; checkerboard; tetracycline-resistant (pBR322); 0.03125 µM, together with: tetracycline): 225 µM
GLGQWISGA — reporter activation (Jurkat T cells expressing 1G4 TCR; NFAT-eGFP reporter, flow cytometry; peptide; concentration not given, HLA-A*02:01 NY-ESO system): 0.26%

Excerpt of the above:
B1 — fold change (Escherichia coli; bacterial growth; DH5α; concentration not given, 37 °C; baseline: with over without arabinose induction): 13.7
GSGAGKESYV — binding intensity (human MAGI1-2/6 PDZ construct (MBP fusion); automated holdup; peptide, purified PDZ protein; concentration not given, unit not given; baseline: biotin control resin, higher = stronger binding): 0.0404
